Published values pooled from the literature.
Numbered parts are unrelated; each lists some results of a single study.
Chain of UniProt O15530 (whole entry, looked up): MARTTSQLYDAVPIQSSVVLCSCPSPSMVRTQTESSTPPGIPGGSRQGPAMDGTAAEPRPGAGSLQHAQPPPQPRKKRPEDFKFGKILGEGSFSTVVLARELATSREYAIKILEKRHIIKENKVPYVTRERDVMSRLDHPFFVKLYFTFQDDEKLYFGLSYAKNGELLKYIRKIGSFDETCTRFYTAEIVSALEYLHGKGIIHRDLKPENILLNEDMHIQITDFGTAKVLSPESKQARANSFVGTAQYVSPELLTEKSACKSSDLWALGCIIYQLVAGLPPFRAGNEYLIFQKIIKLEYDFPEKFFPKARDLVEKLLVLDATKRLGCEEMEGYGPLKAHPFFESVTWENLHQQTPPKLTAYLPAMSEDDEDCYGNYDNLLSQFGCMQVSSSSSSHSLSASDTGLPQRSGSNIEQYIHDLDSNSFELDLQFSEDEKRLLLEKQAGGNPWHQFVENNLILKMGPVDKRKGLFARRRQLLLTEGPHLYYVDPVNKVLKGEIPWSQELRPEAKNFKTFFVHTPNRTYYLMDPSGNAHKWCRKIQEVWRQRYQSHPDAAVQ
Chain of UniProt P05771 (whole entry, looked up): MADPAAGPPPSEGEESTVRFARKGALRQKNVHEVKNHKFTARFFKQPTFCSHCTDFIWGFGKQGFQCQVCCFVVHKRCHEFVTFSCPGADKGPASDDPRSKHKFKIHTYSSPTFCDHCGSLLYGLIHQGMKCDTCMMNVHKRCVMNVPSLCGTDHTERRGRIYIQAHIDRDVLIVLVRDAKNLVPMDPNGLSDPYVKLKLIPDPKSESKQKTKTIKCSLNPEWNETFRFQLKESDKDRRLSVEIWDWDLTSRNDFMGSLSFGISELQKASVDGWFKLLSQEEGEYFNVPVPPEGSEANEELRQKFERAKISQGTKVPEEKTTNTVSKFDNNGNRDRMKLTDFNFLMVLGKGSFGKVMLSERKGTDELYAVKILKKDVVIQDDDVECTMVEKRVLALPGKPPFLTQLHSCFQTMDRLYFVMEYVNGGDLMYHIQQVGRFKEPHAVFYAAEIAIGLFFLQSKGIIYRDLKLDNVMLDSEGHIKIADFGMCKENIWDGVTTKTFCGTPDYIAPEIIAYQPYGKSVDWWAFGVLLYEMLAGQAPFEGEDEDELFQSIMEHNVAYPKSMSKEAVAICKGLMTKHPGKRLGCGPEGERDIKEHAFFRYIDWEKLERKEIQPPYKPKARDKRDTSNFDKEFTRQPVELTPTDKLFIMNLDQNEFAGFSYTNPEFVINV
Chain of UniProt Q00535 (whole entry, looked up): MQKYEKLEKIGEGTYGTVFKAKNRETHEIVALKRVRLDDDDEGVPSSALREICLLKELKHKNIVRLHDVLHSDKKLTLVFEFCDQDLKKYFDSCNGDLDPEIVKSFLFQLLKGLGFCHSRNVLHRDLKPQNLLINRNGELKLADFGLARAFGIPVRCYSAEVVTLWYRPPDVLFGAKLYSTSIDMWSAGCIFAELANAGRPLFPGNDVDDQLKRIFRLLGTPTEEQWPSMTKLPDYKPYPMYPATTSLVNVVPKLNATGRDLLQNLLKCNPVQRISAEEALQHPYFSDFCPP
Chain of UniProt Q9P289 (whole entry, looked up): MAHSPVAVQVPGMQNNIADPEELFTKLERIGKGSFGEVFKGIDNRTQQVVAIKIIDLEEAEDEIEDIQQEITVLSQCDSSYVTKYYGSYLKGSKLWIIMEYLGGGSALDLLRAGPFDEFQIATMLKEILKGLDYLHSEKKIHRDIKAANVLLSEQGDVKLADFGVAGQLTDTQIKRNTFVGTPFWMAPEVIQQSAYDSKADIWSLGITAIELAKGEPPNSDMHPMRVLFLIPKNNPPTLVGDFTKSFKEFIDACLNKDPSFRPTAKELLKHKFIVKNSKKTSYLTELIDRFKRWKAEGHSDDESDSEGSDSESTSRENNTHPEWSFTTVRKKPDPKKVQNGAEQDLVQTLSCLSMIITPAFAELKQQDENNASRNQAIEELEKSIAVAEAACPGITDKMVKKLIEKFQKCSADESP
Chain of UniProt Q13976 (whole entry, looked up): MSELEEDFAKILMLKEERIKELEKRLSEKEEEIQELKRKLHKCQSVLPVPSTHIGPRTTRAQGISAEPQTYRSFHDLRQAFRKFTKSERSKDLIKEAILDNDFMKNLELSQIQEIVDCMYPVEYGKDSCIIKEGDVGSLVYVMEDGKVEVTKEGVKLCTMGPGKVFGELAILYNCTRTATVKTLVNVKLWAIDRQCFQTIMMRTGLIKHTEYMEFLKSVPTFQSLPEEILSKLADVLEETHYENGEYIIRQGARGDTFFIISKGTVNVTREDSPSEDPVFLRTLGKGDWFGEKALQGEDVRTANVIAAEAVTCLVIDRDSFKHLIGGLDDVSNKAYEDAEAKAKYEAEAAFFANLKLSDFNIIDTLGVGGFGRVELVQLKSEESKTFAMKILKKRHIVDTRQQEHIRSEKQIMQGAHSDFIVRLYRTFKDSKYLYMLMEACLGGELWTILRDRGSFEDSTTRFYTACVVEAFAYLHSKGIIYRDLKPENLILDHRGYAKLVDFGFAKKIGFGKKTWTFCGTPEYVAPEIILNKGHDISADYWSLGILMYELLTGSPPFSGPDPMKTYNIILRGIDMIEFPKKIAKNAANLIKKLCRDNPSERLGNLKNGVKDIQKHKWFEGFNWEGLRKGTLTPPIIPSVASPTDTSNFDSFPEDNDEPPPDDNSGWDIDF
Chain of UniProt P35626 (whole entry, looked up): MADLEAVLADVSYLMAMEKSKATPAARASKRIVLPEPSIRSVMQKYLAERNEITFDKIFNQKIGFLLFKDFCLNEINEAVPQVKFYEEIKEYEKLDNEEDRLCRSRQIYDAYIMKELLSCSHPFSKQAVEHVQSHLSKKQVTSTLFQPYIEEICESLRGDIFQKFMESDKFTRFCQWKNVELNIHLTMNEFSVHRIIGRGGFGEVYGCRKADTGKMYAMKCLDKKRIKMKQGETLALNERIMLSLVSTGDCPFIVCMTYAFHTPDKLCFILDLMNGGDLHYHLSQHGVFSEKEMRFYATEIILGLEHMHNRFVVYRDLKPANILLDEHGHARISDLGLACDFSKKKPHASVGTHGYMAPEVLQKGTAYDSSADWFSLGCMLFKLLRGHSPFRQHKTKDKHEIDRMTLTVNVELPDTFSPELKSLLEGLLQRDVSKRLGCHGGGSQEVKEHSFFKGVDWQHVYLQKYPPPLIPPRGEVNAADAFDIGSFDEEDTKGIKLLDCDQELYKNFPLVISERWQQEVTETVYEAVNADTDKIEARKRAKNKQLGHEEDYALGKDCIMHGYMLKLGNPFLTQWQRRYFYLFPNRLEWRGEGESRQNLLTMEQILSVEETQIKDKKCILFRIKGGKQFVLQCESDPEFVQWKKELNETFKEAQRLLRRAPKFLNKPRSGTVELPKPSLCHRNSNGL
Chain of UniProt Q9BZL6 (whole entry, looked up): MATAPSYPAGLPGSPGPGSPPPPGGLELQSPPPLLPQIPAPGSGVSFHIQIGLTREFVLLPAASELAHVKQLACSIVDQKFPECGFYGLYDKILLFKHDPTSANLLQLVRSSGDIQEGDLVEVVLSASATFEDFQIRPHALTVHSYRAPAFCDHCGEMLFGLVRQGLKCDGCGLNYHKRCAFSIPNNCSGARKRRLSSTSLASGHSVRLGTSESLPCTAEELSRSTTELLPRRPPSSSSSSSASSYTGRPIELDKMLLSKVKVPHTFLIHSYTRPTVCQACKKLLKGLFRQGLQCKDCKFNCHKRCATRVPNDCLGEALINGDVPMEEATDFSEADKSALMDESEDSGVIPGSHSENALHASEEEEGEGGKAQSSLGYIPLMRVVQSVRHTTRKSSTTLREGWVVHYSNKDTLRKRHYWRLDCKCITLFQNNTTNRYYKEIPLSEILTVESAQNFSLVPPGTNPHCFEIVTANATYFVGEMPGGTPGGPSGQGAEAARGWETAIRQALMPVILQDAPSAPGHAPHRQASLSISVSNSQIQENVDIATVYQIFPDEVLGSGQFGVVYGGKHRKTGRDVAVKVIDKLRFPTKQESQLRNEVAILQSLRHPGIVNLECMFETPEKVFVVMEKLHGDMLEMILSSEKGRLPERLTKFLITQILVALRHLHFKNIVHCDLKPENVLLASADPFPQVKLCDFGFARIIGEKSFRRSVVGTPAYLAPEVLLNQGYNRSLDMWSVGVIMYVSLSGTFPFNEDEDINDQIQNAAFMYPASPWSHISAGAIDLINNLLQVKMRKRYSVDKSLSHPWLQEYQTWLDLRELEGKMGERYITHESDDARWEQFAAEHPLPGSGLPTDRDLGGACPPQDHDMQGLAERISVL
Chain of UniProt Q96RR4 (whole entry, looked up): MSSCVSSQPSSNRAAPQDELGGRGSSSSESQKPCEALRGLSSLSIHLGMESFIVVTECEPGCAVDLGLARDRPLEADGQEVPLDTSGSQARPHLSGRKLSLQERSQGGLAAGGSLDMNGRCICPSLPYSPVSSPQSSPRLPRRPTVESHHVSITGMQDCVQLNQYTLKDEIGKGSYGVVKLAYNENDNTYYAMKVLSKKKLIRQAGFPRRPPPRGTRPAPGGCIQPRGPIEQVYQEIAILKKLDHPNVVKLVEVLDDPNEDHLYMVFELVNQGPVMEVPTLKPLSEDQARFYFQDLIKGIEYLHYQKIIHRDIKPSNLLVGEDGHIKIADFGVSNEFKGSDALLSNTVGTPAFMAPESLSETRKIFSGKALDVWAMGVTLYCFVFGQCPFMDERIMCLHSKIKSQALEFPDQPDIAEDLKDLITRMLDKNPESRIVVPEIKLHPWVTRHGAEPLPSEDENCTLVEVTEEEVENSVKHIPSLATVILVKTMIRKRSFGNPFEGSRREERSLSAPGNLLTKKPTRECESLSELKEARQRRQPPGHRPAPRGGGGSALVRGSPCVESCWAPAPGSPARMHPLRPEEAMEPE

Sample 1
Target: Histone acetyltransferase KAT6A, both winged helices, GST fusion (KAT6A, Homo sapiens, UniProt Q92794, residues 1-181)
Technique: protein binding microarray
Form: double-stranded DNA, one strand shown
Sample: in vitro
Concentration: not given
Notes: 8-mer, flanks averaged, mean of 2 arrays, mostly near background
Baseline: not given
Direction: higher = stronger binding
Construct (chain): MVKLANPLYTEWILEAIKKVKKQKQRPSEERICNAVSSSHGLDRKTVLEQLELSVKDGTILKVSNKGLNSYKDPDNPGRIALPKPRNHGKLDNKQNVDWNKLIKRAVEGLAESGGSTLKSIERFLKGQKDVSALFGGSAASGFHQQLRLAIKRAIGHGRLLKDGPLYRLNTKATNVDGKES
| Sequence | E-score |
| --- | --- |
| ACTGTCCT | -0.0897 |
| TAACGAGA | -0.225 |
| GGGGGAAC | -0.0866 |
| CTAGGGGA | -0.253 |
| CTGAGCAC | -0.0881 |
| GGAGATGA | -0.0599 |
| GCATCGCA | 0.0265 |
| AGACAGTC | 0.106 |

Sample 2
SMILES: COc1cc2c(N3CCN(C(=O)Nc4ccc(OC(C)C)cc4)CC3)ncnc2cc1OCCCN1CCCCC1
Observed: enzyme activity
Action: inhibitor
Concentration: 0.5 µM
Baseline: control
| target | remaining activity [%] |
| --- | --- |
| TGF-beta receptor type-1 (TGFBR1, Homo sapiens, UniProt P36897) | 102 |
| cAMP-dependent protein kinase catalytic subunit alpha (PRKACA, Homo sapiens, UniProt P17612) | 103 |
| cGMP-dependent protein kinase 1, isoform beta (PRKG1, Homo sapiens, UniProt Q13976) | 102 |
| Protein kinase C beta type, isoform beta-I (PRKCB, Homo sapiens, UniProt P05771) | 98.4 |
| Death-associated protein kinase 1 (DAPK1, Homo sapiens, UniProt P53355) | 103 |
| Calcium/calmodulin-dependent protein kinase type II subunit delta (CAMK2D, Homo sapiens, UniProt Q13557) | 106 |
| Mitogen-activated protein kinase 9 (MAPK9, Homo sapiens, UniProt P45984) | 103 |
| Tyrosine-protein kinase Lyn, isoform B (LYN, Homo sapiens, UniProt P07948) | 103 |
| Serine/threonine-protein kinase Nek2 (NEK2, Homo sapiens, UniProt P51955) | 101 |
| Calcium/calmodulin-dependent protein kinase kinase 2 (CAMKK2, Homo sapiens, UniProt Q96RR4) | 101 |
| Death-associated protein kinase 2 (DAPK2, Homo sapiens, UniProt Q9UIK4) | 104 |
| Inhibitor of nuclear factor kappa-B kinase subunit beta (IKBKB, Homo sapiens, UniProt O14920) | 97.3 |
| Serine/threonine-protein kinase Chk2 (CHEK2, Homo sapiens, UniProt O96017) | 100 |
| G protein-coupled receptor kinase 3 (GRK3, Homo sapiens, UniProt P35626) | 97.6 |
| Cyclin-dependent kinase 4, with cyclin D1 (CDK4, Homo sapiens, UniProt P11802) | 92.5 |
| Cyclin-dependent kinase 5, with p25 (CDK5, Homo sapiens, UniProt Q00535) | 104 |
| Serine/threonine-protein kinase OSR1 (OXSR1, Homo sapiens, UniProt O95747) | 95.8 |

Sample 3
Compound: CCc1ccccc1C(=O)Nc1n[nH]c2c(C)c(F)c(C3C(C#N)=C(C)N(C)C(C)=C3C#N)cc12
Observed: cell-free assay
Technique: competition with immobilised ligand
Concentration: 1 µM
| target | remaining binding [%] |
| --- | --- |
| Mitogen-activated protein kinase kinase kinase 13 (MAP3K13, Homo sapiens, UniProt O43283) | 100 |
| Mitogen-activated protein kinase kinase kinase 9 (MAP3K9, Homo sapiens, UniProt P80192) | 92 |
| Testis-specific serine/threonine-protein kinase 3 (TSSK3, Homo sapiens, UniProt Q96PN8) | 100 |
| Rhodopsin kinase GRK7 (GRK7, Homo sapiens, UniProt Q8WTQ7) | 54 |
| Epidermal growth factor receptor (EGFR, Homo sapiens, UniProt P00533) | 85 |
| Mitogen-activated protein kinase 7 (MAPK7, Homo sapiens, UniProt Q13164) | 86 |
| Cyclin-dependent kinase 16 (CDK16, Homo sapiens, UniProt Q00536) | 100 |
| Dual specificity mitogen-activated protein kinase kinase 5 (MAP2K5, Homo sapiens, UniProt Q13163) | 100 |
| Mitogen-activated protein kinase kinase kinase 10 (MAP3K10, Homo sapiens, UniProt Q02779) | 100 |
| Serine/threonine-protein kinase 26 (STK26, Homo sapiens, UniProt Q9P289) | 98 |
| Protein kinase C eta type (PRKCH, Homo sapiens, UniProt P24723) | 32 |
| High affinity nerve growth factor receptor (NTRK1, Homo sapiens, UniProt P04629) | 97 |
| Microtubule-associated serine/threonine-protein kinase 1 (MAST1, Homo sapiens, UniProt Q9Y2H9) | 100 |
| Serine/threonine-protein kinase D2 (PRKD2, Homo sapiens, UniProt Q9BZL6) | 87 |
| 3-phosphoinositide-dependent protein kinase 1 (PDPK1, Homo sapiens, UniProt O15530) | 86 |
| Tyrosine-protein kinase ABL1, phosphorylated (ABL1, Homo sapiens, UniProt P00519, F317L) | 89 |

Sample 4
Target: Prothrombin, mature alpha-thrombin (F2, Homo sapiens, UniProt P00734)
Technique: aptamer microarray, sandwich
Form: DNA with 2'F-ANA
Sample: in vitro
Concentration: 200 nM
Notes: whole 15-mer aptamer, many near background
Added: Cy3 exosite-II aptamer, 400 nM
Direction: higher = stronger binding
Sequence: GGTTGGTGTGGTTGG
| Modification | mean fluorescence intensity [a.u.] |
| --- | --- |
| 2'F-ANA at 1 4 5 6 12 13 | 69.3 |
| 2'F-ANA at 1 2 4 9 10 11 12 13 15 | 56.9 |
| 2'F-ANA at 4 5 7 8 9 10 11 12 15 | 51.2 |
| 2'F-ANA at 2 5 8 10 11 13 15 | 48.6 |
| 2'F-ANA at 1 3 4 6 7 8 9 10 11 12 14 15 | 55.4 |
| 2'F-ANA at 3 4 10 14 | 248 |
| 2'F-ANA at 2 3 4 6 7 8 10 11 14 15 | 150 |
| 2'F-ANA at 4 5 7 8 9 12 | 159 |

Some of these lines once more (sample 2):
| target | remaining activity [%] |
| --- | --- |
| Protein kinase C beta type, isoform beta-I (PRKCB, Homo sapiens, UniProt P05771) | 98.4 |
| Inhibitor of nuclear factor kappa-B kinase subunit beta (IKBKB, Homo sapiens, UniProt O14920) | 97.3 |
| Cyclin-dependent kinase 5, with p25 (CDK5, Homo sapiens, UniProt Q00535) | 104 |
| TGF-beta receptor type-1 (TGFBR1, Homo sapiens, UniProt P36897) | 102 |
| G protein-coupled receptor kinase 3 (GRK3, Homo sapiens, UniProt P35626) | 97.6 |
| Calcium/calmodulin-dependent protein kinase kinase 2 (CAMKK2, Homo sapiens, UniProt Q96RR4) | 101 |
| Serine/threonine-protein kinase Chk2 (CHEK2, Homo sapiens, UniProt O96017) | 100 |
